Measured values from different studies.
Lines come from different studies, so protocols differ.
Sample: plasma

CCCCCOc1ccc(-c2ccc(-c3ccc(C(=O)N[C@H]4C[C@@H](O)[C@@H](OCC[N+](C)(C)C)NC(=O)[C@@H]5[C@@H](O)[C@@H](C)CN5C(=O)[C@H]([C@@H](C)O)NC(=O)[C@H]([C@H](O)[C@@H](O)c5ccc(O)cc5)NC(=O)[C@@H]5C[C@@H](O)CN5C(=O)[C@H]([C@@H](C)O)NC4=O)cc3)cc2)cc1  Cmax (human; subcutaneous, 10 mg, single dose): 0.108 µg/mL
COc1cccc(C2(O)CCCCC2CN(C)C)c1 (centres unmarked)  Cmax (human; oral, 100 mg, single dose, fasted): 0.346 µg/mL
CC[C@@]1(O)C(=O)OCc2c1cc1n(c2=O)Cc2cc3c(CN(C)C)c(O)ccc3nc2-1  Cmax (human; oral, 2.5 mg, multiple doses, patients): 0.00664 µg/mL
C=C(C)[C@@H]1CC[C@]2(NCCN3CCS(=O)(=O)CC3)CC[C@]3(C)[C@H](CC[C@@H]4[C@@]5(C)CC=C(C6=CC[C@@](COc7ncccc7C#N)(C(=O)O)CC6)C(C)(C)[C@@H]5CC[C@]43C)[C@@H]12  Cmax (human; oral, 100 mg, single dose, fed, tablet): 0.525 µg/mL
O[C@H]1CCCN[C@@H]1CCCn1cnc2c(Cl)c(Cl)ccc21  Cmax (human; oral, 600 mg, single dose, healthy volunteers): 0.213 µg/mL
CC[C@H](C)[C@H](NC(=O)[C@@H](N)CCCNC(=N)N)C(=O)N[C@H](C(=O)N1CCC[C@H]1C(=O)N[C@@H](C)C(N)=O)C(C)C  Cmax (human; intravenous, 0.15 mg/kg, single dose, healthy volunteers): 0.51 µg/mL
O=c1[nH]c(Cc2ccccn2)nc2c1cnn2C1CCOCC1  Cmax (male human; oral, 0.5 mg, single dose): 3.54 nM
c1cc([C@H]2CC[C@]3(CC2)OO[C@]2(O3)C3CC4CC(C3)CC2C4)ccc1OCCN1CCOCC1  Cmax (human; oral, 800 mg, single dose, fasted): 0.73 µg/mL

For quick reference, copied from above:
CC[C@@]1(O)C(=O)OCc2c1cc1n(c2=O)Cc2cc3c(CN(C)C)c(O)ccc3nc2-1  Cmax (human; oral, 2.5 mg, multiple doses, patients): 0.00664 µg/mL
